{"data": "Published values pooled from the literature", "HLA class I histocompatibility antigen, A alpha chain allele A*01:01": "HLA class I histocompatibility antigen, A alpha chain, allele A*01:01 (Homo sapiens, UniProt P04439)", "HLA class I histocompatibility antigen, A alpha chain allele A*02:01": "HLA class I histocompatibility antigen, A alpha chain, allele A*02:01 (Homo sapiens, UniProt P04439)", "note": "Protocols differ between the studies behind these lines. pIC50: −log10 of the molar value."}
{"SMILES": "CC(C)C[C@H](NC(=O)[C@@H](NC(=O)[C@H](Cc1c[nH]cn1)NC(=O)[C@H](CC(=O)O)NC(=O)[C@H](CC(N)=O)NC(=O)[C@H](CCC(N)=O)NC(=O)[C@H](C)N)C(C)C)C(=O)N[C@@H](Cc1ccc(O)cc1)C(=O)N[C@@H](Cc1ccc(O)cc1)C(=O)O", "target": "HLA class I histocompatibility antigen, A alpha chain allele A*01:01", "assay": "binding", "pIC50": 4.83}
{"SMILES": "CC[C@H](C)[C@H](NC(=O)[C@H](CCCNC(=N)N)NC(=O)CNC(=O)[C@@H](NC(=O)[C@@H]1CCCN1C(=O)[C@@H](N)CCSC)[C@@H](C)CC)C(=O)N[C@@H](C)C(=O)N[C@@H](CCC(=O)O)C(=O)N[C@@H](CS)C(=O)N[C@H](C(=O)N[C@@H](CC(C)C)C(=O)O)[C@@H](C)CC", "target": "HLA class I histocompatibility antigen, A alpha chain, allele A*02:06 (Homo sapiens, UniProt P04439)", "assay": "binding, competitor, radioligand competition", "setting": "two days, room temperature, HLA-A*02:06", "pIC50": "< 4.40"}
{"SMILES": "CC(C)[C@H](NC(=O)[C@@H](NC(=O)[C@H](CCC(=O)O)NC(=O)[C@@H](NC(=O)[C@H](Cc1ccccc1)NC(=O)[C@H](C)NC(=O)[C@H](CO)NC(=O)[C@@H](NC(=O)[C@@H](N)CO)[C@@H](C)O)C(C)C)[C@@H](C)O)C(=O)O", "target": "HLA class I histocompatibility antigen, A alpha chain allele A*02:01", "assay": "peptide-MHC binding, radioligand competition binding", "pIC50": 7.59}
{"SMILES": "CSCC[C@H](NC(=O)[C@H](CCC(=O)O)NC(=O)[C@H](CCC(=O)O)NC(=O)[C@@H](N)CCCNC(=N)N)C(=O)N[C@@H](CCC(=O)O)C(=O)N[C@H](C(=O)N[C@@H](Cc1c[nH]cn1)C(=O)N[C@@H](CCC(=O)O)C(=O)N[C@@H](CC(C)C)C(=O)O)C(C)C", "target": "HLA class I histocompatibility antigen, A alpha chain allele A*02:01", "assay": "binding, competitor, radioligand competition", "setting": "two days, room temperature, HLA-A*02:01", "pIC50": "< 4.40"}
{"SMILES": "CC(C)[C@H](NC(=O)[C@H](Cc1c[nH]cn1)NC(=O)[C@H](CCC(=O)O)NC(=O)[C@H](Cc1ccccc1)NC(=O)[C@H](CCC(N)=O)NC(=O)[C@H](C)N)C(=O)N1CCC[C@H]1C(=O)N[C@@H](CCC(N)=O)C(=O)N[C@@H](Cc1ccc(O)cc1)C(=O)O", "target": "HLA class I histocompatibility antigen, A alpha chain allele A*02:01", "assay": "binding", "pIC50": 4.27}
{"SMILES": "CC[C@H](C)[C@H](NC(=O)[C@@H](N)CCC(=O)O)C(=O)N[C@@H](CCCCN)C(=O)N[C@@H](CCC(=O)O)C(=O)N[C@@H](CO)C(=O)N[C@H](C(=O)N[C@@H](CCC(N)=O)C(=O)N[C@H](C(=O)N[C@@H](Cc1ccccc1)C(=O)O)[C@@H](C)O)C(C)C", "target": "HLA class I histocompatibility antigen, A alpha chain, allele A*26:01 (Homo sapiens, UniProt P04439)", "assay": "peptide-MHC binding, radioligand competition binding", "pIC50": 8.11}
{"SMILES": "CC(C)[C@H](NC(=O)CNC(=O)CNC(=O)[C@@H](NC(=O)[C@H](CO)NC(=O)[C@@H]1CCCN1C(=O)[C@H](C)NC(=O)[C@H](CO)NC(=O)[C@H](CCCCN)NC(=O)[C@@H](N)CCCNC(=N)N)[C@@H](C)O)C(=O)O", "target": "HLA class I histocompatibility antigen, A alpha chain, allele A*02:17 (Homo sapiens, UniProt P04439)", "assay": "binding", "pIC50": 4.69}
{"SMILES": "CC(C)C[C@H](NC(=O)[C@H](Cc1ccc(O)cc1)NC(=O)CNC(=O)[C@@H](N)C(C)C)C(=O)N[C@@H](CCC(N)=O)C(=O)N1CCC[C@H]1C(=O)N[C@@H](CCCNC(=N)N)C(=O)N[C@H](C(=O)N[C@@H](Cc1ccccc1)C(=O)O)[C@@H](C)O", "target": "HLA class I histocompatibility antigen, A alpha chain allele A*02:01", "assay": "peptide-MHC binding, radioligand competition binding", "pIC50": "< 4.15"}
{"SMILES": "CC[C@H](C)[C@H](NC(=O)[C@H](CCCNC(=N)N)NC(=O)[C@H](CC(N)=O)NC(=O)[C@H](Cc1ccccc1)NC(=O)[C@@H](NC(=O)[C@@H](N)Cc1ccc(O)cc1)[C@@H](C)O)C(=O)N[C@@H](Cc1c[nH]cn1)C(=O)N[C@@H](CCC(=O)O)C(=O)N[C@@H](Cc1ccccc1)C(=O)O", "target": "HLA class I histocompatibility antigen, A alpha chain allele A*01:01", "assay": "binding", "pIC50": 5.11}
{"note": "A few entries again:"}
{"SMILES": "CC(C)C[C@H](NC(=O)[C@H](Cc1ccc(O)cc1)NC(=O)CNC(=O)[C@@H](N)C(C)C)C(=O)N[C@@H](CCC(N)=O)C(=O)N1CCC[C@H]1C(=O)N[C@@H](CCCNC(=N)N)C(=O)N[C@H](C(=O)N[C@@H](Cc1ccccc1)C(=O)O)[C@@H](C)O", "target": "HLA class I histocompatibility antigen, A alpha chain allele A*02:01", "assay": "peptide-MHC binding, radioligand competition binding", "pIC50": "< 4.15"}
